Published values gathered from unrelated publications.
A part holds a random share of what one study measured.
UniProt P47898, sequence (whole entry, looked up): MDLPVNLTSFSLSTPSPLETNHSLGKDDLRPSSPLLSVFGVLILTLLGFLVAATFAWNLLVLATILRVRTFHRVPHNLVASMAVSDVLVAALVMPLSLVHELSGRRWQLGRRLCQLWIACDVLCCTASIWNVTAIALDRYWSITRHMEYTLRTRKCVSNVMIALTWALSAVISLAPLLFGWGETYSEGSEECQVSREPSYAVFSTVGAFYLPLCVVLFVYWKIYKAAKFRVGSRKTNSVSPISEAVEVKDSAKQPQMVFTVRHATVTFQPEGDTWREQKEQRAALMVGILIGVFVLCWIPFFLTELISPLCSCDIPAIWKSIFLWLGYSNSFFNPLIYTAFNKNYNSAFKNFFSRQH

Sample 1
Target: panel of 300 human kinases
Concentration: 0.5 µM
Reading: higher = more selective
Endpoint: Gini score
CNc1cc2c(Nc3cccc(Br)c3)ncnc2cn1: 0.6
Cn1sc(=O)n(Cc2ccccc2)c1=O: 0.69
CNC(=O)c1cc(Oc2ccc(NC(=O)Nc3ccc(Cl)c(C(F)(F)F)c3)cc2)ccn1: 0.79
COc1ccc(C(=O)Nc2sc3c(c2C(N)=O)CCCC3)cc1OC: 0.67
NCCNc1ncc(C(N)=O)c(Nc2cccc(C(F)(F)F)c2)n1: 0.58
COc1cc2nccc(Oc3ccc(NC(=S)NC(=O)c4ccccc4C)cc3)c2cc1OC: 0.67
CC(C)N(CCC(=O)c1ccc2ccccc2c1)Cc1ccccc1: 0.65

Sample 2
Organism: Sarcocystis neurona
Observed: parasite growth
Concentration: 10 µM
Time: 96 h
Reference: untreated
Endpoint: log2 fold change
CN(C)[C@@H]1C(O)=C(C(N)=O)C(=O)[C@@]2(O)C(O)=C3C(=O)c4c(O)cccc4[C@@](C)(O)[C@H]3[C@H](O)[C@@H]12: -0.15
CC(C)(S)[C@@H](N)C(=O)O: 0.3
COc1cc(CNC(=O)CCCC/C=C\C(C)C)ccc1O: 0.46
CC(=O)O[C@]1(C(C)=O)CC[C@H]2[C@@H]3C[C@H](C)C4=CC(=O)CC[C@]4(C)[C@H]3CC[C@@]21C: 0.33
CC(C)(C)NC(=O)[C@@H]1C[C@@H]2CCCC[C@@H]2CN1C[C@@H](O)[C@H](Cc1ccccc1)NC(=O)[C@H](CC(N)=O)NC(=O)c1ccc2ccccc2n1: -0.33
CN(C)c1ccc(O)c2c1C[C@H]1C[C@H]3[C@H](N(C)C)C(O)=C(C(N)=O)C(=O)[C@@]3(O)C(O)=C1C2=O: -0.78
C[C@H]1O[C@H](O[C@H]2[C@H](O)[C@@H](O)[C@@H](O[C@H]3[C@H](O)[C@@H](O)C(O)O[C@@H]3CO)O[C@@H]2CO)[C@H](O)[C@@H](O)[C@@H]1N[C@H]1C=C(CO)[C@@H](O)[C@H](O)[C@H]1O (stereo partly shown): 0.32

Further values, each from its own experiment
C[C@H](c1ccnc(Nc2nc3ccc(-c4cc(N(C)C)ncn4)cc3[nH]2)c1)N1CCN(C(=O)CC(F)(F)F)CC1  inhibition (HTR5A (Homo sapiens, UniProt P47898); ligand displacement; 10 µM): 11.9%
CCOC(=O)[C@@H]1CSCC(=O)N[C@H](CC)C(=O)N(C)[C@@H](C)C(=O)N[C@H](CC(C)C)C(=O)N2CCC[C@@H]2C(=O)N(CC)CC(=O)N[C@H](CC(C)C)C(=O)N(C)[C@H](C)C(=O)N[C@@H](CC(C)C)C(=O)N1C  logD (hydrocarbon/water): 0.307

Excerpt of the above (sample 1):
COc1ccc(C(=O)Nc2sc3c(c2C(N)=O)CCCC3)cc1OC: 0.67
NCCNc1ncc(C(N)=O)c(Nc2cccc(C(F)(F)F)c2)n1: 0.58
